Published values gathered from unrelated publications.
Lines come from different studies, so protocols differ. Values joined by “and” are separate records of one study, mostly repeats; a detail may differ. ± marks the error that the study gave.

For `Cn1c(Cn2ccc(C(F)(F)F)c(Oc3cc(Cl)cc(C#N)c3)c2=O)n[nH]c1=O`, the EC50 was 0.0003 ± 0.0001 µM (HIV-1; viral replication, single-round infection; RT mutant V111A).
`CCc1c(C(=O)C(N)=O)c2c(OCC(=O)O)cccc2n1Cc1ccccc1` gave a viability difference of 17.7% (C2C12; 1 µM, added: MP venom; reference: venom alone).
With `Cc1cc(/C=C/C#N)cc(C)c1-n1cnc2cnc(Nc3ccc4cc(C#N)ccc4c3)nc21` the EC50 was 1.64 ± 0.168 µM (HIV-1; viral replication, single-round infection; RT mutant Y181I).
The AC50 of `Cc1c(Cl)cccc1-c1ccc(CNCCSc2nnnn2-c2ccccc2)o1` is reported as 14.1 µM (SARS-CoV-2; cytopathic effect, cell-based CPE; USA_WA1/2020; round 1, 5-point dilution).
For `YECDIPIGAGI`, “response magnitude per positive donor” read 101 (AIM; peptide, CD8+ T cells from PBMC, human donors; dose not given).
`O=C1Nc2ccc(Cl)cc2[C@@](C#CC2CC2)(C(F)(F)F)O1` has an EC50 of 0.0022 ± 0.0004 µM (HIV-1; viral replication, single-round infection; RT mutant E138K/M184I).
`CCN(CC)CCNC(=O)c1ccc(-c2nc(CN3CCc4ccccc43)c(C)o2)cc1` gave a maximum response of 91.9% (SARS-CoV-2; cytopathic effect; USA_WA1/2020; retest, 8-point, duplicates).
The remaining activity of `CNC(=O)[C@@H](NC(=O)[C@H](CC(C)C)[C@H](O)C(=O)NO)C(C)(C)C` is reported as 70.1% and 69.7% and 72.3% (Daboia russelii venom proteases (SVMP); protease activity, inhibitor; MH population; 0.1 µM, added: azocasein substrate; reference: venom alone).
`CCOP(=S)(OCC)Oc1nc(Cl)c(Cl)cc1Cl` gave a Vmax of 0.7 ± 0.11 nmol/min/mg protein (rat CYP2D; bufuralol 1'-hydroxylation; liver microsomes; concentration not given).
The maximum response of `COc1cccc(-c2ccc(CN3CCCC(c4nc5ccc(C)cc5c(=O)[nH]4)C3)cc2)c1` (stereo not shown) is reported as 40.3% (SARS-CoV-2; cytopathic effect; USA_WA1/2020; retest, 8-point, duplicates).
With `O=C(NCC(c1cccnc1)N1CCOCC1)c1n[nH]c2c1CCCC2` (stereo not shown) the remaining activity was 38% (Lassa mammarenavirus; viral replication; Huh-7; 10 µM, 72 h).
The maximal inhibition of `CNCCCC1c2ccccc2C=Cc2ccccc21.Cl` is reported as 98% (HeLa; Ebola VLP entry).
The responding donors of `GAVILRGHLRIAGHH` is reported as 8% (human CD4 T cells; AIM; peptide).
`CCC1CCCCN1CCCNC(=O)c1sc2nc(C)cc(C)c2c1-n1cccc1` (stereo not shown) gave an AC50 of 14.1 µM (SARS-CoV-2; cytopathic effect, cell-based CPE; USA_WA1/2020).
`FKIYSKHTPINLVRD` has a responding donors of 18% (human CD4 T cells; AIM; peptide).
The maximum response of `CNCCN(C)c1nc(NC(C)c2ccccc2)c2ccccc2n1` (stereo not shown) is reported as 67.9% (SARS-CoV-2; cytopathic effect; USA_WA1/2020; retest 8-point).
`CCC(CC)C(=O)N1CC(=O)N[C@@H](CC(C)C)c2nc(cs2)C(=O)N[C@@H](Cc2ccccc2)c2nc(C)nn2CC(=O)N[C@@H](C(C)C)C1` gave a remaining activity of 98% (Lassa mammarenavirus; viral replication; Huh-7; 10 µM, 72 h).
The responding donors of `KNTQEVFAQVKQIYK` is reported as 8% (human CD4 T cells; AIM; peptide).
With `COc1ccc2cc3[n+](cc2c1OC)CCc1cc2c(cc1-3)OCO2` the inhibition was 50 ± 4.1% (SARS-CoV-2 envelope protein; Vero C1008; 10 µg/mL).
`O=C1CC(c2nc3c(s2)CCCC3)c2cc3cn[nH]c3cc2N1` (stereo not shown) has a remaining activity of 30% (Lassa mammarenavirus; viral replication; Huh-7; 10 µM, 72 h).
With `Cc1ccc(-c2cccc(CN3CCCC(c4nc5ccc(C)cc5c(=O)[nH]4)C3)c2)c(C)c1` (stereo not shown) the maximum response was 101% (SARS-CoV-2; cytopathic effect; USA_WA1/2020; round 2, 5-point).
`GsMTx4` — result for “washout recovery time constant”: 4.7 ± 1.7 s (stretch-activated cation channel, rat; ion current, outside-out patch clamp; rat astrocytes; 500-ms pressure steps every 2 s, -50 mV).
`ω-agatoxin IVA`: “PKA-RII phosphorylation inhibition” 0.838 and 0.732 and 0.568 (cAMP signalling, high-content microscopy; DRG neurons, rat, spinal cord injury; dose not given, normalised 0 to 1, unit not given, added: forskolin, DAMGO 0.3; reference: DAMGO maximum, higher = stronger inhibition).
The responding donors of `YSRYRIGNYKLNTDH` is reported as 15% (human CD4 T cells; AIM; peptide).
For `Cc1cc(/C=C/C#N)cc(C)c1Nc1ccnc(Nc2ccc(C#N)cc2)n1`, the EC50 was 0.0935 ± 0.0121 µM (HIV-1; viral replication, single-round infection; RT mutant K101P/V179I).
The maximum response of `CCCN(CCC)CCNC(=O)c1cc(-c2ccc(Br)s2)nc2ccccc12` is reported as 67.1% (SARS-CoV-2; cytopathic effect; USA_WA1/2020; round 2, 5-point).
For `NC(=O)CCNC(=O)c1ccccc1S`, the EC50 was 4.15 ± 0.54 µM (HIV-1; viral replication; human PBMC, subtype B 92BR014, dual-tropic clinical isolate).
The transition enthalpy of `LPYGK` is reported as 5.44 kJ/mol (DSC; peptide, 7/3 SOPC/cholesterol bilayers; 15 mol%, pH 7.40, SOPC chain melting transition).
`COc1cc(C)c(-c2ccc(CN(C)C)cc2)cc1C` has a remaining activity of 35% (Lassa mammarenavirus; viral replication; Huh-7; 10 µM, 72 h).
With `KTDGTLMIERFVSLA` the responding donors was 7% (human CD4 T cells; AIM; peptide).
`O=C(NCc1ccccc1CN1CCCC1=O)c1cnn2cccnc12` has a remaining activity of 66% (Lassa mammarenavirus; viral replication; Huh-7; 10 µM, 72 h).
`Cc1cn([C@H]2C[C@H](N=[N+]=[N-])[C@@H](CO)O2)c(=O)[nH]c1=O` has an EC50 of 0.00427 ± 0.005 µM (HIV-1; viral replication; human PBMC, subtype G G3, CCR5-tropic clinical isolate).
`O=C(C1CC(=O)N(C2CC2)C1)N1CCC2(CC1)Cc1cccc(c1)Oc1cccc(c1)CCNC2=O` (stereo not shown) has an Emax of 12.5% (Lassa mammarenavirus; viral replication; Huh-7; concentration not given).
`Cc1cc(/C=C/C#N)cc(C)c1-n1cnc2cnc(Nc3ccc(/C=C/C#N)cc3)nc21` gave an EC50 of under 0.0054 µM (HIV-1; viral replication, single-round infection; RT mutant V106A/F227L/L234I).
The responding donors of `TVTLLPAADLDDFSK` is reported as 7% (human CD4 T cells; AIM; peptide).
For `CCCC(=O)OCSc1ccccc1C(=O)NCCC(N)=O`, the EC50 was 3.41 ± 3.26 µM (HIV-1; viral replication; human PBMC, subtype B 92BR014, dual-tropic clinical isolate).
`CCCCN(CCCC)CCCNC(=O)c1cc(-c2ccc(Cl)s2)nc2ccccc12` gave a maximum response of 75.8% (SARS-CoV-2; cytopathic effect; USA_WA1/2020; retest, 8-point, duplicates).
`Cc1cc(/C=C/C#N)cc(C)c1Nc1nc(Nc2ccc3cc(C#N)ccc3c2)ncc1N` has an EC50 of at most 0.0021 µM (HIV-1; viral replication, single-round infection; RT mutant P236L).
With `FSNSGSDVLYQPPQT` the responding donors was 8% (human CD4 T cells; AIM; peptide).
For `Cc1nc2sccn2c1C(=O)N1CCc2onc(-c3cccc(F)c3)c2C1`, the remaining activity was 48% (Lassa mammarenavirus; viral replication; Huh-7; 10 µM, 72 h).
For `Nc1ncnc2c([C@@H]3N[C@H](CO)[C@@H](O)[C@H]3O)c[nH]c12`, the inhibition was 93.9% (Marburg virus; viral RNA in cell lysate; HeLa, Musoke; 12.5 µM, 1 h).
`O=C(Cc1cccnc1)N1CCC(c2cc(Cc3ccccc3)n[nH]2)CC1` gave a remaining activity of 35% (Lassa mammarenavirus; viral replication; Huh-7; 10 µM, 72 h).
With `Cc1cc(C(C)(C)CC(C)(C)C)ccc1OCCOCC[N+](C)(C)Cc1ccccc1` the IC50 was 3.85 µM (HeLa; Ebola VLP entry).

Repeated from above:
`Cc1cn([C@H]2C[C@H](N=[N+]=[N-])[C@@H](CO)O2)c(=O)[nH]c1=O` has an EC50 of 0.00427 ± 0.005 µM (HIV-1; viral replication; human PBMC, subtype G G3, CCR5-tropic clinical isolate).
`ω-agatoxin IVA`: “PKA-RII phosphorylation inhibition” 0.838 and 0.732 and 0.568 (cAMP signalling, high-content microscopy; DRG neurons, rat, spinal cord injury; dose not given, normalised 0 to 1, unit not given, added: forskolin, DAMGO 0.3; reference: DAMGO maximum, higher = stronger inhibition).
The maximum response of `COc1cccc(-c2ccc(CN3CCCC(c4nc5ccc(C)cc5c(=O)[nH]4)C3)cc2)c1` (stereo not shown) is reported as 40.3% (SARS-CoV-2; cytopathic effect; USA_WA1/2020; retest, 8-point, duplicates).
For `Cc1nc2sccn2c1C(=O)N1CCc2onc(-c3cccc(F)c3)c2C1`, the remaining activity was 48% (Lassa mammarenavirus; viral replication; Huh-7; 10 µM, 72 h).
